Results collected from several papers.
Each line is one published result; not all experiments were run side by side. ± gives the spread as reported.
Target: Broad substrate specificity ATP-binding cassette transporter ABCG2 (ABCG2, Homo sapiens, UniProt Q9UNQ0)
Residues used in one study (Q9UNQ0 1-655): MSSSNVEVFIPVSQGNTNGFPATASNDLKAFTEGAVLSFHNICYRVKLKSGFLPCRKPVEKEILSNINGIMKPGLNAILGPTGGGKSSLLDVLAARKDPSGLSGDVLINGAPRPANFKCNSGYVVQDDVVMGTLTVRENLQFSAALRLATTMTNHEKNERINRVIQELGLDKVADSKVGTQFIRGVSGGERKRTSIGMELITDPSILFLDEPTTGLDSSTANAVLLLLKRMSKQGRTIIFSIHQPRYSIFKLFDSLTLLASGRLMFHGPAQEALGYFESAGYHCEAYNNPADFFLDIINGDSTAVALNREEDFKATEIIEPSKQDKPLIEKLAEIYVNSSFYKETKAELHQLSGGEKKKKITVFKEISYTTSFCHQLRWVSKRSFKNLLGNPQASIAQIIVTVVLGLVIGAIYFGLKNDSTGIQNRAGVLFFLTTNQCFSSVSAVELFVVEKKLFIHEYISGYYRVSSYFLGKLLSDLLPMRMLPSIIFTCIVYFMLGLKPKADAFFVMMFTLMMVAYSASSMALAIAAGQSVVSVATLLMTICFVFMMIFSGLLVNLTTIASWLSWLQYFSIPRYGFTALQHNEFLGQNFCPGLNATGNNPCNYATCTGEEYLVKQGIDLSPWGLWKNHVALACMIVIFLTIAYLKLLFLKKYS

| SMILES | test | system | setting | how to read | endpoint | value |
| --- | --- | --- | --- | --- | --- | --- |
| COc1ccc2c3c([nH]c2c1)[C@H](CC(C)C)N1C(=O)[C@H](CC(=O)O)NC(=O)[C@@H]1C3 | inhibitor, item: protoporphyrin IX | A549 cells | 1 µM, 2 h, together with: ALA 1 mM |  | inhibition | 15% |
| O=C(c1ccoc1)N1CCN(c2cc(-c3ccoc3)nc3cc(-c4ccccc4)nn23)CC1 | JC-1 dye efflux, inhibitor, flow cytometry | ABCG2-overexpressing cells | together with: JC-1 1 µM |  | IC50 | 1400 nM |
| C=CC(=O)N1CCC([C@@H]2CCNc3c(C(N)=O)c(-c4ccc(Oc5ccccc5)cc4)nn32)CC1 | transport, item: Lucifer Yellow uptake | membrane vesicles | 0.2 µM | reference: vehicle | remaining activity | 108 ± 4.5% |
| Cc1cc(Nc2ncnc3ccc(NC4=NC(C)(C)CO4)cc23)ccc1Oc1ccn2ncnc2c1 | substrate, bidirectional transwell permeability | MDCKII cells transfected with ABCG2 | 1 µM, 1 h, pH 7.4 | reference: without over with ABCG2 inhibitor | net efflux ratio | 7.71 |
| COc1ccccc1-c1cc2nc(-c3ccccc3)cc(N3CCN(C(=O)c4ccco4)CC3)n2n1 | JC-1 dye efflux, inhibitor, flow cytometry | ABCG2-overexpressing cells | together with: JC-1 1 µM |  | IC50 | 1030 ± 170 nM |
| COc1ccc2[nH]cc(CCNC(C)=O)c2c1 |  | MDCK-II cells transduced with ABCG2 | 10 µM, 4 h |  | efflux ratio | 1.11 ± 0.04 |
| Cc1cc(=O)c2c3c(=O)c4ccccc4c3n(CCc3ccccc3)c2c1=O | mitoxantrone efflux, inhibitor, flow cytometry | HEK293 transfected with ABCG2 | 10 µM, 30 min, together with: mitoxantrone 5 µM | reference: Ko143 1 µM | inhibition | 99 ± 9% |
| O=C(c1ccoc1)N1CCN(c2cc(-c3ccco3)nc3cc(-c4ccco4)nn23)CC1 | JC-1 dye efflux, inhibitor, flow cytometry | ABCG2-overexpressing cells | together with: JC-1 1 µM |  | IC50 | 2350 nM |
| O=C(O)[C@H]1O[C@@H](Oc2c(-c3ccc(O)cc3)oc3ccccc3c2=O)[C@H](O)[C@@H](O)[C@@H]1O | glucuronide efflux, substrate | HeLa cells expressing UGT1A9 |  |  | Km | 35.9 ± 11.9 µM |
| COc1cccc(-c2cc3nc(-c4ccco4)cc(N4CCN(C(=O)c5ccoc5)CC4)n3n2)c1 | JC-1 dye efflux, inhibitor, flow cytometry | ABCG2-overexpressing cells | together with: JC-1 1 µM |  | IC50 | 2260 nM |
| CC(O)c1cc(C(=O)N[C@@H](C)Cn2ccc(-c3ccc(C#N)c(Cl)c3)n2)[nH]n1 (stereo partly drawn) | substrate | MDCK transfected |  |  | efflux ratio | > 2 |
| O=c1ccc(=O)c2c1c1c(=O)c3ccccc3c1n2CCCc1ccccc1 | mitoxantrone efflux, inhibitor, flow cytometry | HEK293 transfected with ABCG2 | 10 µM, 30 min, together with: mitoxantrone 5 µM | reference: Ko143 1 µM | inhibition | 33% |

Repeated from above:
| SMILES | test | system | setting | how to read | endpoint | value |
| --- | --- | --- | --- | --- | --- | --- |
| CC(O)c1cc(C(=O)N[C@@H](C)Cn2ccc(-c3ccc(C#N)c(Cl)c3)n2)[nH]n1 (stereo partly drawn) | substrate | MDCK transfected |  |  | efflux ratio | > 2 |
| COc1ccc2c3c([nH]c2c1)[C@H](CC(C)C)N1C(=O)[C@H](CC(=O)O)NC(=O)[C@@H]1C3 | inhibitor, item: protoporphyrin IX | A549 cells | 1 µM, 2 h, together with: ALA 1 mM |  | inhibition | 15% |
